# Assay results pooled from the literature.
# A part holds a random share of what one study measured. Substitutions count along the parent as printed.

# Study 1 — method: DHFR PCA, deep sequencing; matrix: yeast; added: (+)-ABA 58 µM; reference: wild-type fitted maximum; reading: higher = stronger binding
# Target: ABI1, truncated, D143A, DHFR fusion (Arabidopsis thaliana)
# Setting: methotrexate growth selection, single substitutions
# Parent: PYL1, truncated, DHFR fusion (Arabidopsis thaliana); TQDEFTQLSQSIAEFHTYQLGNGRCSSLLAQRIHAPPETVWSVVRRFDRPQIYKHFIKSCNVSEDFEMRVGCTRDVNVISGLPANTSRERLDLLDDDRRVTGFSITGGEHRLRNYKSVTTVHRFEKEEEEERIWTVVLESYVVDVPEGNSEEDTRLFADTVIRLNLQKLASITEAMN; partner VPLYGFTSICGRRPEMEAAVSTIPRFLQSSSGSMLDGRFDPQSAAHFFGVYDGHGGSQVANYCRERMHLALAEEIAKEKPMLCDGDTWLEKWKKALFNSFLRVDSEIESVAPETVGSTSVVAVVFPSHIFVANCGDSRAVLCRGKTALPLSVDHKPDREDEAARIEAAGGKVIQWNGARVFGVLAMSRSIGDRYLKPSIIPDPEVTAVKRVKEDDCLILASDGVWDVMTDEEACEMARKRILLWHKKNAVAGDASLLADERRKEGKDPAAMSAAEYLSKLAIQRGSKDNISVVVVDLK
Substitution,relative binding score [%]
L138E,-4.65
Q19H,83.8
V137H,-1.59
A158Q,5.12
S140V,4.38
V121C,71.1
E38P,45.8
S11G,79
L82D,-3.12
L93R,88.7
T119E,-6.83
I133W,84
M176G,85.8

# Study 2 — target: CCNE1, cyclin fold, Cln2 fusion (human); method: yeast growth competition, sequencing; matrix: yeast; setting: weak parent motif; reference: not given; reading: higher = stronger binding
# Parent: MICAL3 docking peptide (human); LQLRRQLSFSEDS
Substitution,normalised enrichment score
Q2R,1.04
F9G,-0.0742
D12A,1.3
L7E,-0.0293
L3Y,3.2
L3T,4.31
F9H,-0.38
E11W,0.592
Q6L,0.599
D12Q,0.743
E11V,0.456
R5T,-0.109
S8D,0.911
S8I,0.801
E11F,0.555
L3F,3.65
Q2P,2.57
R5M,0.166
S8F,1.19
L7C,-0.208

# Study 3 — method: Sort-seq; refers to: YFP reporter; matrix: E. coli; setting: PhoQ-PhoP variant library; added: 10 µM Mg2+; reference: high Mg2+ state; reading: higher = stronger signaling
# Molecule: PhoQ, residues 284 288 289 292 302 303 TNASYF
target,fold induction
"PhoP, residues 12 14 15 18 19 HHYTI (Escherichia coli, UniProt P23836)",11.6
"PhoP, residues 12 14 15 18 19 SFCSL (Escherichia coli, UniProt P23836)",11
"PhoP, residues 12 14 15 18 19 AYFRS (Escherichia coli, UniProt P23836)",3.48

# Study 4 — method: RNA Bind-n-Seq; form: RNA; matrix: in vitro; concentration: 365 nM; reference: no-protein control; reading: higher = stronger binding
# Target: RNA binding protein fox-1 homolog 2, RRM domain, GST-SBP tag (RBFOX2, Homo sapiens, UniProt O43251-10, residues 100-194)
# Setting: natural RNA segment, single round, ends assumed
# Target sequence (chain): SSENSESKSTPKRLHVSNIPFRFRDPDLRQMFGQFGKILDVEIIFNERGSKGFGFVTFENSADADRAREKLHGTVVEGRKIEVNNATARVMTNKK
Oligonucleotide,RBNS enrichment (R)
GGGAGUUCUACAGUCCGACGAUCUCAAUAAGUCUUAUUUGCAAAAGCCAUGAUCUUCAAGGGUGAGAGAAAAAUCUGAAGGUCAGCGGAGACCUCAGAGAAAACGGGGGCAAAGUGUCUUAGGCCAGAAGUACUGGAAUUCUCGGGUGCCAA,0.994
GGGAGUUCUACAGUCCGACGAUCGGCCUUUAAAAAGUGCCUAGUAGGUCAUUUGAGACCCAGAGAAAUGCACAGAGCUUGAGCAAAGGCAUGAAGUCCCUGACAUUGUUUUCCUUUUUGUCUCAGCAUAUAGUUGGAAUUCUCGGGUGCCAA,0.755
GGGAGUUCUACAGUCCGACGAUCUUUAGAUAUACACACAUGCGUAACAGCUGACAGUUUUUCACAAGUACACCCACCUGUAAAUACUGUAUCCUCAGUUUAGAAAAUUAGUGCAAUGUAUGAAAAUCAAGUGUUGGAAUUCUCGGGUGCCAA,0.287
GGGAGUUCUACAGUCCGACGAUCUGCCUACCCACUCCAGGACUCUCUCCCUCCCCCCAACCCCAUCCCCAUCUCUGAGCUAUGGGGCAAUCACUCCCAUUUUACCUUUGCCAUCCUUGACCUUCGUUCACCCCUGGAAUUCUCGGGUGCCAA,0.972
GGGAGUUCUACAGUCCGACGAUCCUAAUAAAUAUUUUUUUAUGAAGAGGAAAAAUGUGUAGAUUACAUUUCACAUUUUGUAUUUUUGUUUGUGUCUGUUUGUAUUUUGGUGUUUACAACACCAAAGUGGGAAAUGGAAUUCUCGGGUGCCAA,0.394
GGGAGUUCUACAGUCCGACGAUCGAAGCUGAUUUCAUCUAAGGAUGGGUUGAAGUAGGAUGUGCUCCUGCGACUUCUCAGGCAGGUGAGAGGGGUAGUCCUUACACUGUCUAGCAUAAACGCCUUCCGGAAGGUGGAAUUCUCGGGUGCCAA,0.48
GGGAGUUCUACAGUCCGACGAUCUGGGCAUUUGAGAGGUACAGGCAGAAGAGAAGACAAUCAUGGUCUGAUUAGUUGAGUGACAGGAGUUAACAGUGAUAGUGGUUUGAGCUUUGUGUCUGUGACUCUUGUCUUGGAAUUCUCGGGUGCCAA,1.05
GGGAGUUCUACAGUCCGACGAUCAUCAGCCAUUUCUGUUGUGAACUGUAGAAGAUCUUAAAUUGGGAUUGGACUCACUCUCUGUUCCACAAACAUAGAUGUAACCCUCUACCUCUCCUUACCCAACUUAUUACUGGAAUUCUCGGGUGCCAA,0.465
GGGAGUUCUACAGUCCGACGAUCUUCUGCCACAGAACAGCAGCAGACGUGUCGGGAGGUUAGCUGCGGAAAGAAAUCGGGAUGCCGCGGAGCACAGAGUGAUUUGGAACUCCAUUCCACCUGACCCUGUGUGUUGGAAUUCUCGGGUGCCAA,0.377
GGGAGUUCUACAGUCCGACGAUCAUUUAAGUUAUUUUAAUUUAUUGUGAAUCCGAAAACUAGAUUUAGUUGGUCAGAAUCUGUAAAGUACUAGCACCUAUCCCUUUGGAGCAGCAAUCAAAUGAUUUAGUCUUUGGAAUUCUCGGGUGCCAA,0.297
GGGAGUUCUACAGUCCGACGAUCAGCCUCGACUGCCACAGAGAAGCAUACUCUUGCAUCUGGGUUUGUUUACAGCGAUUCCGUGGACCGGGGGUAUUUUGAUCAGGGGUGGUUUUGGUCUGGGAGGGUUUUGUUGGAAUUCUCGGGUGCCAA,9.4
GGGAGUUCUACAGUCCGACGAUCAGGGAAAACACUUGGACUCUUCUUGCAGCACUAAAACUAACCUGGAAUCGCAUGUAGUAGAGCUGAAAGAAUUAAAGACCCGGCUUACAGCUUCAGAUGAAGCUUUAAGCUGGAAUUCUCGGGUGCCAA,5.92

# Study 5 — target: FOSL1, bZIP domain (human); method: DHFR protein complementation; matrix: yeast; reference: wild-type JUN-FOS pair; reading: higher = stronger binding
# Setting: single substitutions, most at no-binding floor
# Parent: JUN, bZIP domain (human); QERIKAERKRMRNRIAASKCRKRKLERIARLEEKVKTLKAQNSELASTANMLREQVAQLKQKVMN; partner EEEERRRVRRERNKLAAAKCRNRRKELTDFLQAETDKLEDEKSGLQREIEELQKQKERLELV
Substitution,binding fitness [natural log]
S43L,-0.409
I28A,-0.683
L38E,-1.45
S43Y,-0.542
M51A,-0.286
T48Y,-0.301
L52W,-1.48
Q55Y,-0.644
T37V,-0.386
V56S,-1.24
A40I,-0.598
M51N,-0.514
Q41W,-1.47
Q41A,-0.597

# Study 6 — method: universal PBM; form: double-stranded DNA, one strand shown; matrix: in vitro; concentration: 600 nM; reading: higher = stronger binding
# Target: Sal-like protein 4, full length isoform A (SALL4, Homo sapiens, UniProt Q9UJQ4, residues 1-1053)
# Chain of UniProt Q9UJQ4 (whole entry, looked up): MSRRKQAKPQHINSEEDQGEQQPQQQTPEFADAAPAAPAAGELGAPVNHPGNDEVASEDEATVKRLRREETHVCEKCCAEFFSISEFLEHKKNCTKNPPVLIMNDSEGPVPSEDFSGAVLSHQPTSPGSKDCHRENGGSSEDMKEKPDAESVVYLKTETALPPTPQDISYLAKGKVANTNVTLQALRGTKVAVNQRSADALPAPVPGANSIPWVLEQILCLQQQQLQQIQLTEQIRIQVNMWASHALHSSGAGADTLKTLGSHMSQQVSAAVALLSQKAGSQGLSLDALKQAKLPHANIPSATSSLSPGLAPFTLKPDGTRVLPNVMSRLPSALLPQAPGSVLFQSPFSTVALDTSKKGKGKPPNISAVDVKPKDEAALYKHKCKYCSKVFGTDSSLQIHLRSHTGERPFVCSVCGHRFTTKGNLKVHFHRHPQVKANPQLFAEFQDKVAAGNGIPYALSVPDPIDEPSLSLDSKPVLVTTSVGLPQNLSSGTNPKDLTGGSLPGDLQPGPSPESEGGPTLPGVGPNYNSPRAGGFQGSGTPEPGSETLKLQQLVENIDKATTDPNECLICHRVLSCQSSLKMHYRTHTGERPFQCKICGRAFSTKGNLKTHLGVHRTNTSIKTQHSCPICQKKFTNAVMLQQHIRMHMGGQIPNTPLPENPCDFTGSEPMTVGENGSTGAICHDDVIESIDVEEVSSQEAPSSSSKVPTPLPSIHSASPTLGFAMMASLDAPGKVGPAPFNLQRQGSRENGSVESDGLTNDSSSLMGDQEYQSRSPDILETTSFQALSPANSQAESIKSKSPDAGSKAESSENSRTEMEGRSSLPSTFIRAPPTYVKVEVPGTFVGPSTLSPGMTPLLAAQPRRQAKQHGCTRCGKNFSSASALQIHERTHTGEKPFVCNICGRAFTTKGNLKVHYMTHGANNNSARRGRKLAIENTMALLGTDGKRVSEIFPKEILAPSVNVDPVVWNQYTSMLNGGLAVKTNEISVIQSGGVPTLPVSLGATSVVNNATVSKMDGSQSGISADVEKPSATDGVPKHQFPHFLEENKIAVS
# Setting: 8-mer, flanks averaged, mean of replicates
Oligonucleotide,E-score
CCAGCCCG,-0.388
GACTACGC,-0.189
AATATAAA,0.431
CGGGCAAA,-0.172
TGTGCCAA,0.196
AGAGAGGA,-0.0978
CATGTATC,0.224
CCAAAGAA,0.122
GTAACTTA,0.176
GACGGGGA,-0.242
AACTTACC,-0.0246
CATGGTGG,-0.243
CATACTCA,0.182
ACATGTCC,-0.0474
AAAATGTA,0.295
TTACGTAA,0.202
AGGTCGTC,-0.155
GGTACGGA,-0.244
ATTGAAAC,0.27
CTATAGGA,0.189
GAGAGGAC,-0.117
ACTGACGA,-0.00061
ATGTCCCG,-0.158
CAAGGCGA,-0.215
